Experimental data pooled from the literature.
Lines come from different studies, so protocols differ. ± gives the spread as reported.

For `COc1ccc(-c2c(-c3ccc(C#N)c(F)c3)nc(N3CCC(N)CC3)n(C)c2=O)cc1F`, “serious adverse event incidence” read 5% (refers to: Anemia; human patients; oral, 60 mg, dose expansion).
`CC(=O)c1c([O-])cc(C)oc1=O.[Na+]`: “mean residence time” 7.29 ± 0.23 h (Wistar rat, male, serum; oral, 200 mg/kg, no CYP inhibitor).
`O=C(Nc1ccccc1)C1CCN(C(=O)Oc2cccnc2)CC1`: “adverse event Anxiety” 0% (healthy women; oral, 60 mg, 7 days).
`C[C@]1(CO)Cc2ncn(-c3ccc(C#N)c(Cl)c3)c2C(=O)O1` — result for “Cmax at steady state”: 720 nM (human, plasma; 20 mg once daily, fasted).
For `C[C@@H](NC(=O)N1C(=O)[C@H](Cc2ccnc(N)c2)[C@H]1C(=O)O)C1CCCCC1`, “incidence of administration site extravasation” read 0% (healthy adult Chinese volunteers; continuous intravenous infusion, 0.6 mg/kg/h, 5-day infusion, CTCAE 5.0 grading).
`O=C1Nc2cc3[nH]nc(-c4ccncc4)c3cc2CN1Cc1ccccc1`: “patients with constipation” 40% (CTCAE v4.03; advanced solid tumour patients; intravenous, 7.2 mg/kg, schedules 1/2).
`CN(C(=O)n1cnc(-c2ccc[n+]([O-])c2)c1)C1CCCCC1` has a concentration of 90 ± 5 nM (medium without cells; 100 nM, 0 h).
For `COc1cc2c(Oc3ccc4[nH]c(C)cc4c3F)ccnc2cc1OCC1(N)CC1`, the Hematuria incidence was 36.4% (paediatric refractory sarcoma patients; 12 mg).
`Cn1c(-c2ccc(C(N)=O)cc2F)nnc1C(C)(C)Oc1c(F)cc(Cl)cc1F` — result for “musculoskeletal disorder TEAE”: 0% (human; oral, 3 mg, single ascending dose).
`CC(C)(c1ccccc1)c1cc(-n2nc3ccccc3n2)c(O)c(C(C)(C)c2ccccc2)c1`: “mean daily dermal uptake” 0.77 ng/kg body weight/day (exposure assessment; human, age 1-2 years; sunscreen).
For `CO[C@H]1C[C@@H]2CC[C@@H](C)[C@@](O)(O2)C(=O)C(=O)N2CCCC[C@H]2C(=O)O[C@H]([C@H](C)C[C@@H]2CC[C@@H](OC(=O)NCCOCCOCCOCCOCCOCCOCCOCCOCCC(=O)N3CCc4cc(Cn5nc(-c6ccc7oc(N)nc7c6)c6c(N)ncnc65)ccc4C3)[C@H](OC)C2)C[C@@H](O)[C@H](C)/C=C(\C)[C@@H](O)[C@@H](OC)C(=O)[C@H](C)C[C@H](C)/C=C/C=C/C=C/1C`, “incidence of Anemia TEAE” read 26.3% (patients with advanced solid tumours; intravenous, dose not given, any grade).
The MCH of `CCc1ccc(CC/C=C/c2ccc3c(c2)C(=O)CC3)cc1` is reported as 19.6 pg (Sprague-Dawley rat, male, blood; oral, 120 mg/kg/day, 14 days).
`O=C(O)[C@H]1O[C@@H](Oc2cc3oc(-c4ccccc4)cc(=O)c3c(O)c2O)[C@H](O)[C@@H](O)[C@@H]1O` has a Tmax of 5.75 ± 2.25 h (Sprague Dawley rat, plasma; oral, 10 g lyophilized powder/kg, high dose).
For `O=C(c1ccc(F)c(F)c1Nc1ccc(I)cc1F)N1CC(O)([C@@H]2CCCCN2)C1`, “serious adverse events” read 100% (human patients; oral, 1 mg/kg, age ≥18 years).

For quick reference, copied from above:
`O=C(O)[C@H]1O[C@@H](Oc2cc3oc(-c4ccccc4)cc(=O)c3c(O)c2O)[C@H](O)[C@@H](O)[C@@H]1O` has a Tmax of 5.75 ± 2.25 h (Sprague Dawley rat, plasma; oral, 10 g lyophilized powder/kg, high dose).
